Measured values collected from several papers.
Lines come from different studies, so protocols differ. Several values in a cell are separate wells, animals, samples, runs or records. Numbers after ± are the reported error. In brackets after ≈: the same amount, converted by molar mass.
Ugcg: Ceramide glucosyltransferase (Ugcg, Mus musculus, UniProt O88693)
UniProt O88693, sequence (whole entry, looked up): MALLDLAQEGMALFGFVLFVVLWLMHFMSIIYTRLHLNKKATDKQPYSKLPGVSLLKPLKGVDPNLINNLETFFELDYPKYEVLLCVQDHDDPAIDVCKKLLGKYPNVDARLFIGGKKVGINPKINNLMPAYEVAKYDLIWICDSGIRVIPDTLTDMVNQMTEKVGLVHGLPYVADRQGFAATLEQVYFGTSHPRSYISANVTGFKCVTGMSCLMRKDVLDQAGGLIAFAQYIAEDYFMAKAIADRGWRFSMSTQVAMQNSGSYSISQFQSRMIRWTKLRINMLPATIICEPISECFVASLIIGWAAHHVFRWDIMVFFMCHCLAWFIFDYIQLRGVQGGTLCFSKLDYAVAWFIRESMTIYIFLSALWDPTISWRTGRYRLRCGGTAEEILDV

Compound	tested on	test	system	setting	scale	quantity	value
CN(O)C(=O)CCC(=O)NCCCN(CCCCN(CCCNC(=O)CCC(=O)N(C)O)C(=O)CCC(=O)N(C)O)C(=O)CCC(=O)N(C)O.[89Zr]	–	radio-TLC	aqueous buffer	7 d, pH 7.2, 37 °C, 89Zr-labelled complex, with: MgCl2 10-fold excess	–	intact complex	99.6 ± 0.4%
C[C@@H](O)[C@@H]1NC(=O)[C@H](CCCCN)NC(=O)[C@@H](Cc2c[nH]c3ccccc23)NC(=O)[C@H](Cc2ccc(O)cc2)NC(=O)[C@@H](NC(=O)[C@@H](Cc2ccccc2)NC(=O)CN2CCN(CC(=O)O)CCN(CC(=O)O)CCN(CC(=O)O)CC2)CSSC[C@@H](C(=O)N[C@H](CO)[C@@H](C)O)NC1=O [gallium-67 labelled]	–	gamma counting	ICR mice, male, blood	iv, 11 kBq/mouse, 1 h	–	tissue uptake	0.32 ± 0.06 %ID/g
CC1(C)C(=CC=C2CCCC(C=CC3=[N+](CCC[N+](C)(C)C)c4ccc(S(=O)(=O)O)cc4C3(C)C)=C2SCCOCCOCCC(=O)O)N(CCC[N+](C)(C)C)c2ccc(S(=O)(=O)O)cc21	–	–	CD-1 mouse, urine	intravenous, 50 nmol, up to 4 h	–	urinary excretion	85 ± 1.9 % injected dose
CC[C@H](C)[C@@H]1NC(=O)[C@H](Cc2ccc(O)cc2)NC(=O)CCCSC[C@@H](C(=O)N(CC(=O)N[C@@H](CC(C)C)C(=O)NCC(N)=O)Cc2ccc(F)cc2)NC(=O)[C@H](CC(N)=O)NC(=O)[C@H](CCC(N)=O)NC1=O	–	–	human	intranasal, 50 µg single dose	–	AE leading to discontinuation	0%
COC(=O)[C@@]1(C(C)C)C=C(C(=O)Nc2cccc(C(=O)Nc3ccc(Nc4nccc(-c5cccnc5)n4)c(C)c3)c2)C(=O)CC1	–	–	rat, plasma	10 µM, 20 min	–	compound remaining	105%
O=C([O-])CN1CCN(CC(=O)[O-])CCN(CC(CCCc2ccccc2[N+](=O)[O-])N(CC(=O)[O-])CC(=O)[O-])CC1.[90Y+3] (stereo not shown)	–	TLC	human serum	72 h, pH 7, 37 °C	–	intact radiolabelled complex	99.8 ± 0.1%
Fc1ccc(OCC2CN(Cc3ncc4ccccn34)CCC2(F)F)cc1 (stereo not shown)	–	equilibrium dialysis	human plasma	–	–	fu	0.004
C=C1C[C@]2(C(=O)OC)C=C(C(=O)Nc3cccc(C(=O)Nc4ccc(Nc5nccc(-c6cccnc6)n5)c(C)c4)c3)C(=O)[C@H]1C2	–	–	Wistar rat, male, plasma	10 µM, 10 min	–	compound remaining	8.4% and 8.79%
CCCCCCN1C[C@H](O)[C@@H](O)[C@H](O)[C@H]1CO	Ugcg	enzyme activity, inhibitor, fluorescence	–	–	–	IC50	20 µM
C=Cc1ccccc1[B-]12OC(=O)C(c3ccccc3)=N[N+]1=C(C)c1ccc(N(CC)CC)cc1O2 (stereo not shown)	–	–	toluene	–	–	fluorescence lifetime	2.6 ns
OC[C@@H]1[C@@H](O)[C@H](O)[C@@H](O)CN1CCCCCOCC1CCOCC1	Ugcg	enzyme activity, inhibitor	RAW264.7	in situ, with: C6-NBD-ceramide	–	IC50	10 µM
N#Cc1cccc(N2CN(CC(=O)NCC(F)(F)F)C(=O)C23CCN(C(=O)c2cnc4[nH]ncc4c2)CC3)c1	–	–	mouse liver microsomes	–	–	CLint	37 µL/min/mg protein
O=S1(=O)CC2CCCCC2CS1 (stereo not shown)	–	phase solubility, NMR	water	25 °C, with: hydroxypropyl-β-cyclodextrin 241 mM	–	solubility	27.2 mM (≈ 5610 µg/mL)
COc1ccc(Nc2nc(Nc3ccc(OCCOCCOCC[18F])cc3)ncc2Br)cc1	–	–	ICR mice, S180 tumour	intravenous, 370 kBq, 30 min	baseline: tumour over muscle	uptake ratio	1.57
O=C(CN1CCOCC1)Nc1ccc(C2CCCCC2)cc1	–	liver microsome stability	mouse liver microsomes	1 µM	–	hepatic clearance	80 mL/min/kg
COc1cccc(OC)c1-c1cc(C(=O)NC2(C(=O)O)C3CC4CC(C3)CC2C4)nn1-c1ccc(C(=O)N(C)CCOCCN(C)C(=O)[C@H](CCCCNC(=O)[C@H](CC(C)C)NC(=O)C2OC2C(=O)O)NC(=O)CN2CCN(CC(=O)[O-])CCN(CC(=O)[O-])CCN(CC(=O)[O-])CC2)cc1C(C)C.[177Lu+3] (mixture of isomers)	–	–	mouse, HT-29 xenograft	72 h post injection, biodistribution	baseline: tumour over kidney uptake	tumour-to-kidney ratio	0.49
O=C(CC(F)(F)F)Nc1ccc(C2CCCCC2)cc1	–	liver microsome stability	mouse liver microsomes	1 µM	–	hepatic clearance	87 mL/min/kg
CC(C)=CCc1cc(C(=O)/C=C/c2ccc(O)cc2)c(O)cc1O	–	–	monkey liver microsomes	phase I metabolism	–	CLint	9.68 µL/min/mg
CNC(=O)C1CCCN(C(=O)C2CC3CCC2N3C(=O)[C@@H]2C[C@@H](O)CN2C(=O)NCc2cccc(Cl)c2F)C1 (mixture of isomers)	CYP3A4 (human)	inhibitor, time-dependent inhibition	–	0.0686 µM, preincubated without NADPH, with: testosterone substrate	–	6β-hydroxytestosterone formation	170 ng/mL
COc1ccc(-c2ccc([C@H]3[C@@H](F)[C@@H](F)C[C@@H](F)[C@H]3F)cc2)cc1OC	–	hepatocyte stability	cryopreserved mouse hepatocytes	1 µM	–	hepatic clearance	75 mL/min/kg
CC(C)(C)C(=O)Nc1ccc2[nH]c(CN3CCC(N(CCCN4CCOCC4)CC4OC(n5cnc6c(N)ncnc65)C(O)C4O)CC3)nc2c1 (stereo not shown)	–	–	male Sprague-Dawley rat, plasma	intraperitoneal, 20 mg/kg, 2 h	–	concentration	363 ng/mL
COCC1CN(C2CCN(c3cc(OC)c(Nc4ncc(Br)c(Nc5ccc6c(c5P(C)(C)=O)OCCO6)n4)cc3C)CC2)C1	–	–	EGFR-mutant NSCLC patients, plasma	oral, 150 mg single dose, geometric mean	–	t1/2	24.3 h

Compound	tested on	test	system	setting	scale	quantity	value
Cc1ccc(OCC(=O)N(Cc2cccs2)c2ccn[nH]2)cc1	–	–	monkey plasma	750 ng/mL, 4 h, 37 °C, unit not given	baseline: time zero	remaining compound	77.8
Cc1nn(-c2nc3c(F)cc(F)cc3s2)c(O)c1C(c1ccc(C(F)(F)F)cc1)c1c(C)nn(-c2nc3c(F)cc(F)cc3s2)c1O	–	–	ICR mouse, plasma	intravenous, 5 mg/kg	–	C0	11700 ng/mL and 8640 ng/mL and 23100 ng/mL
C=C[C@]1(C)C[C@@H](OC(=O)CSc2ccc(NC(=O)c3ccco3)cc2)[C@]2(C)[C@H](C)CC[C@]3(CCC(=O)[C@H]32)[C@@H](C)[C@@H]1O	–	–	Mycoplasma gallisepticum-infected chickens, plasma	intramuscular, 5 mg/kg, 0.25 h	–	plasma concentration	349 ng/mL and 575 ng/mL and 334 ng/mL and 1070 ng/mL and 1090 ng/mL and 601 ng/mL and 352 ng/mL and 679 ng/mL
C=CC(=O)Nc1cc(Nc2nccc(-c3c[nH]c4ccccc34)n2)c(OC)cc1N(C)CCN(C)C	–	storage stability	human plasma samples	30 d, -80 °C, LQC level	baseline: nominal concentration	percentage recovery	13.3%
CS(=O)(=O)c1ccc(-c2ccc([C@H]3[C@@H](F)[C@@H](F)C[C@@H](F)[C@H]3F)cc2)cn1	–	liver microsome stability	cynomolgus liver microsomes	1 µM	–	hepatic clearance	5.7 mL/min/kg
CCC1(CC)CC(=O)N(C2CCOc3ccc(C(=O)NC4CC(C)(C)Oc5ccccc54)cc32)C(=N)N1 (stereo not shown)	–	–	human plasma	–	–	unbound fraction	0.035
COc1cccc(OC)c1-c1cc(C(=O)NC2(C(=O)O)C3CC4CC(C3)CC2C4)nn1-c1ccc(C(=O)N(C)CCOCCOCCN(C)C(=O)[C@H](CCCCNC(=O)[C@H](CC(C)C)NC(=O)C2OC2C(=O)O)NC(=O)CN2CCN(CC(=O)[O-])CCN(CC(=O)[O-])CCN(CC(=O)[O-])CC2)cc1C(C)C.[177Lu+3] (mixture of isomers)	–	–	mouse HT-29 xenograft, large intestine	4 h post injection, biodistribution	–	tissue uptake	1.2 %ID/g
COc1ccc2c(c1)O[B-]1(c3ccccc3)OC(=O)C(c3ccccc3)=N[N+]1=C2 (stereo not shown)	–	–	toluene	–	–	fluorescence quantum yield	0.12
CCc1cnc(NC(=O)c2cc(S(=O)(=O)N3CCOCC3)ccc2N(C)C2CCCC2)s1	–	–	mouse, serum	10 mg/kg, 3 doses	–	Triglyceride	102 mg/dL
CCCCCCCOc1ccc(CC[C@](N)(CO)COP(=O)(O)O)cc1C(F)(F)F	–	–	healthy male humans, plasma	0.5 mg amiselimod, day 1, mean	–	AUCtau	0.0173 µg·h/mL
CCC1=[N+]2N=C(/C=C/C=C/c3ccc(C(F)(F)F)cc3)C(=O)O[B-]2(c2ccccc2)Oc2cc(N(CC)CC)ccc21 (stereo not shown)	–	–	toluene	–	–	fluorescence lifetime	1.09 ns
C=CC(=O)Nc1cc(Nc2nccc(-c3cn(C)c4ccccc34)n2)c(OC)cc1N(C)CCNC	–	storage stability	human plasma	5 h, -80 °C, LLOQ level	–	recovery	97.8%
Cc1[nH]nc2c1N=C(c1ccccc1Cl)c1cnc(N3CCOCC3)cc1N2	–	–	dog plasma	–	–	unbound fraction	0.0247
C=C(NC(=O)c1csc(-c2nc3c(cc2O)-c2nc(cs2)C(=O)NC(C(C)O)C(=O)NC(=C(C)OC)c2nc(cs2)C(=O)NC2c4nc(cs4)C(=O)NC(COC(=O)c4c5c6c(cccc6n4O)COC(=O)C(OC4CC(C)(O)C(N(C)C)C(C)O4)C2OC5)c2nc-3cs2)n1)C(N)=O (stereo not shown)	–	–	cynomolgus monkey, both sexes, plasma	intravenous infusion, 1.5 mg/kg twice daily, 0 to 6 h, first dose	–	Cmax	13300 ± 2810 ng/mL
CCC(CC)n1c(Cc2cccs2)nc2cc(C(=O)N[C@@H](CC(=O)O)c3ccccc3)ccc21	–	–	Sprague-Dawley rat, male, plasma	ip, 10 mg/kg	–	volume of distribution (Vz)	9.59 ± 3.36 L/kg
C/C(N)=N/C(=N\S(=O)(=O)c1ccc(C(F)(F)F)cc1)N1C[C@H](c2ccccc2)C(c2ccc(Cl)cc2)=N1	–	–	C57BL/6 mouse, brain	intravenous, 10 mg/kg	–	Cmax	83.6 ng/mL
NS(=O)(=O)c1cccc(-c2ccc([C@H]3[C@@H](F)[C@@H](F)C[C@@H](F)[C@H]3F)cc2)c1	–	hepatocyte stability	cryopreserved rat hepatocytes	1 µM	–	hepatic clearance	10 mL/min/kg
COc1ccc2c(c1)CN(C(=O)CCN1CCC(Cc3ccccc3)CC1)CCS2	–	–	dog plasma	7500 ng/mL	–	fu	0.161
CN1CCC[C@]1(C)/C=C/S(=O)(=O)NC(=O)Nc1c2c(cc3c1CCC3O)CCC2 (stereo partly shown)	–	–	human, plasma	oral, 12.5 mg twice daily of parent drug, day 14, metabolite of dosed drug	–	AUC(0-inf)	298 µg·h/mL
CC(C)OC(=O)[C@H](CO)NCc1cc(Cl)c(OCc2cccc(-c3ccccc3)c2Br)cc1OCc1cccnc1	–	–	hPD-L1 MC-38 tumour, humanised hPD-1 C57BL/6 mouse	oral, 10 mg/kg × 21, day 21	–	body weight	21.2 ± 1.2 g
CCCN(C)c1cc(C(F)(F)F)nc(SCCC(=O)NCc2ccco2)n1	–	–	Wistar rat	intraperitoneal, 25 mg/kg, 2 min post-dose, isoflurane anaesthesia	baseline: vehicle control	heart rate	no effect

Repeated from above:
Compound	tested on	test	system	setting	scale	quantity	value
CCCCCCCOc1ccc(CC[C@](N)(CO)COP(=O)(O)O)cc1C(F)(F)F	–	–	healthy male humans, plasma	0.5 mg amiselimod, day 1, mean	–	AUCtau	0.0173 µg·h/mL
CCC1=[N+]2N=C(/C=C/C=C/c3ccc(C(F)(F)F)cc3)C(=O)O[B-]2(c2ccccc2)Oc2cc(N(CC)CC)ccc21 (stereo not shown)	–	–	toluene	–	–	fluorescence lifetime	1.09 ns
C=CC(=O)Nc1cc(Nc2nccc(-c3cn(C)c4ccccc34)n2)c(OC)cc1N(C)CCNC	–	storage stability	human plasma	5 h, -80 °C, LLOQ level	–	recovery	97.8%
Cc1[nH]nc2c1N=C(c1ccccc1Cl)c1cnc(N3CCOCC3)cc1N2	–	–	dog plasma	–	–	unbound fraction	0.0247
C=C(NC(=O)c1csc(-c2nc3c(cc2O)-c2nc(cs2)C(=O)NC(C(C)O)C(=O)NC(=C(C)OC)c2nc(cs2)C(=O)NC2c4nc(cs4)C(=O)NC(COC(=O)c4c5c6c(cccc6n4O)COC(=O)C(OC4CC(C)(O)C(N(C)C)C(C)O4)C2OC5)c2nc-3cs2)n1)C(N)=O (stereo not shown)	–	–	cynomolgus monkey, both sexes, plasma	intravenous infusion, 1.5 mg/kg twice daily, 0 to 6 h, first dose	–	Cmax	13300 ± 2810 ng/mL
CCC(CC)n1c(Cc2cccs2)nc2cc(C(=O)N[C@@H](CC(=O)O)c3ccccc3)ccc21	–	–	Sprague-Dawley rat, male, plasma	ip, 10 mg/kg	–	volume of distribution (Vz)	9.59 ± 3.36 L/kg
C/C(N)=N/C(=N\S(=O)(=O)c1ccc(C(F)(F)F)cc1)N1C[C@H](c2ccccc2)C(c2ccc(Cl)cc2)=N1	–	–	C57BL/6 mouse, brain	intravenous, 10 mg/kg	–	Cmax	83.6 ng/mL
